{"data": "Measured values pooled from the literature", "note": "Every numbered part comes from another study and shows a few of its results, in no order. Substitutions count along the parent as printed."}
{"data": "Series 1", "target": "Interferon regulatory factor 7, full length, phosphomimetic (IRF7, Homo sapiens, UniProt Q92985, residues 1-503, S471D/S472D/S475D/S476D/S477D/S483D/S484D/S487D)", "technique": "protein-binding microarray", "molecule type": "double-stranded DNA, one strand shown", "medium": "in vitro", "tested at": "2200 nM top", "setting": "60-bp whole probe", "added": "salmon DNA 0.4 mg/ml", "reference": "random background probes", "direction": "higher = stronger binding", "constant ends, left off below": "GCCTAGCAC … GTCTTGATTCGCTTGACGCTGCTG", "UniProt Q92985, sequence (whole entry, unmodified, looked up)": "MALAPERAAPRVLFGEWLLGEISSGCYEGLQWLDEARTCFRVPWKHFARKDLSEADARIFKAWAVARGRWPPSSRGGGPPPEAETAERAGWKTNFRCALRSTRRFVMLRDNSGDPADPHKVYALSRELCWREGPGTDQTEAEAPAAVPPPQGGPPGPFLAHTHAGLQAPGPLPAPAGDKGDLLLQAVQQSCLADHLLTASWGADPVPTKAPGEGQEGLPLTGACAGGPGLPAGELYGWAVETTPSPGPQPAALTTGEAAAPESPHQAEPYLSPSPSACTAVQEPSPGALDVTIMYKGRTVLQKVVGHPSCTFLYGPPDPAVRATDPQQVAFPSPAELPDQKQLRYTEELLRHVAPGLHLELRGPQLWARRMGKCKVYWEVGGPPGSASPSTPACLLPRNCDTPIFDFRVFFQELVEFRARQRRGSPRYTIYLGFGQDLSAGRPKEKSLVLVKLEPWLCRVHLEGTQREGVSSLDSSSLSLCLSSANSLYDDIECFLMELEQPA"}
{"Sequence": "GACGATTTCAGACGGGAGACGTGCTAG", "fitted relative affinity [z-score]": 0.184}
{"Sequence": "CATCTTCTGGATTTTTTAGCGTGCTAG", "fitted relative affinity [z-score]": 0.881}
{"Sequence": "GTCGATCTCAGTCTCGAGACGTGCTAG", "fitted relative affinity [z-score]": 0.821}
{"Sequence": "ATGCATGTAAATAATCAGACAGTGCTA", "fitted relative affinity [z-score]": -0.409}
{"Sequence": "TTAGATATCAGTCTAGATTAGTGCTAG", "fitted relative affinity [z-score]": -0.238}
{"Sequence": "TTAGTTATCCTACTGCTTTAGTGCTAG", "fitted relative affinity [z-score]": 1.15}
{"Sequence": "ATGTTTTTCATTTTTTTTCAGTGCTAG", "fitted relative affinity [z-score]": 2.6}
{"Sequence": "TTAGGACTGGGGTATCGGTGAGTGCTA", "fitted relative affinity [z-score]": -0.65}
{"Sequence": "GCCGAACTGAGTCTCGAGACGTGCTAG", "fitted relative affinity [z-score]": 0.117}
{"data": "Series 2", "target": "CCNE1, cyclin fold, Cln2 fusion (human)", "technique": "yeast growth competition, sequencing", "medium": "yeast", "setting": "weak parent motif", "reference": "not given", "direction": "higher = stronger binding", "parent": "WEE1 docking peptide (human); HKTFRKLRLFDTP"}
{"Variant": "HKTFAKARLFDTP [R5A L7A]", "normalised enrichment score": 1.01}
{"Variant": "GKTFRKLRLFDTP [H1G]", "normalised enrichment score": 0.0855}
{"Variant": "RKTFRKLRLFDTP [H1R]", "normalised enrichment score": 0.44}
{"Variant": "HKTFRKLLLFDTP [R8L]", "normalised enrichment score": 0.38}
{"Variant": "HKTGRKLRLFDTP [F4G]", "normalised enrichment score": 1.45}
{"Variant": "HKTFRVLRLFDTP [K6V]", "normalised enrichment score": 0.102}
{"Variant": "HCTFRKLRLFDTP [K2C]", "normalised enrichment score": 0.727}
{"data": "Series 3", "target": "RNA binding protein fox-1 homolog 2, RRM domain, GST-SBP tag (RBFOX2, Homo sapiens, UniProt O43251-10, residues 100-194)", "technique": "RNA Bind-n-Seq", "molecule type": "RNA", "medium": "in vitro", "tested at": "365 nM", "setting": "natural RNA segment, single round, ends assumed", "reference": "no-protein control", "direction": "higher = stronger binding", "Construct (chain)": "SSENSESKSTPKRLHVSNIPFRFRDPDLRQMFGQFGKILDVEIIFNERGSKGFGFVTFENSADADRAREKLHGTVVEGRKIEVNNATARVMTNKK"}
{"Sequence": "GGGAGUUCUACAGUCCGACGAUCCAGAGGAGGGUGGCUCUGUUUCCCAAGGCAAAGUUGAGACCAAUGGGCUGUCGGACUGAAGCCCCCUGAACAAGGGAUGAGGUACCAGGGAGAGCUUCCUCGCUGGACGGUGGAAUUCUCGGGUGCCAA", "RBNS enrichment (R)": 0.396}
{"Sequence": "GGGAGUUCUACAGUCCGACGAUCAUGCACGUGCUUUGCCCUGGGUACAGCCAGAGCCCUUCAACCCCACCUUGGACUUGAGGACCUACCUGAUGGGACGUUUCCACGUGUCUCUAGAGAAGGAUUCCUGGAUCUGGAAUUCUCGGGUGCCAA", "RBNS enrichment (R)": 1.33}
{"Sequence": "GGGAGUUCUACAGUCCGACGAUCAAAUACAGAAUUGGGAAGACAGGACAGAGGUGACAGAGGAUCUUAAGGGAGCACCCUGUUCCUAGACAGAUGGAGAGGCGUAUCCAUGUUUUCCUACAUAAUGUGGUUAAUGGAAUUCUCGGGUGCCAA", "RBNS enrichment (R)": 0.576}
{"Sequence": "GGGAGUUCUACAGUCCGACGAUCACCAAUGAAAGACAGUACAUGUAAUAAUAUUUUCCUCAGUACAAUUUUGCUGGCCUUAACUGGUAUCAAACGCUGUCAUUGAGAUGUUUUCAAAGAACAUUGAGUUGUAUUGGAAUUCUCGGGUGCCAA", "RBNS enrichment (R)": 0.346}
{"Sequence": "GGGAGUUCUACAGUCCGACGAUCGAAAGGCUGAACCUCAGGGCUCCACCCACGUCAUGGCCACGCCCCCUCUAUUACAAGAGUCCGCCUUGCCUGAGUCCUCCCUGCUGAGUAAAGCUACCCUCCCAGGUCCAUGGAAUUCUCGGGUGCCAA", "RBNS enrichment (R)": 0.299}
{"Sequence": "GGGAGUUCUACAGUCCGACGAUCAUUAAUUCAGUGCCUUUUUCCUCUAAGCAUACUCUUGGUCCAUGCCCCAUGCAGUGUCAACUGAUGUUUAAGCUACAGAGCAUUGUUGUAGUGGUGAGGGCCCUCUGUUGUGGAAUUCUCGGGUGCCAA", "RBNS enrichment (R)": 0.526}
{"Sequence": "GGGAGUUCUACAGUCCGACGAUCAGUGACAGUUUCUUUUGUGUUCCUAUGGAAACAUUUUAUACUGUACAUGCUAUGCUGAAGACAUUCAAAACGUGAUGUUUUGAAUGUGGAUAAAACUGUGUAAACCACAUUGGAAUUCUCGGGUGCCAA", "RBNS enrichment (R)": 0.373}
{"Sequence": "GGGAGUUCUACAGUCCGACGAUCCAGCCUGACCAAAAUGGUGAAACCUCCUCUCUACUAAAACUACAAAAAUUAACUGGGUGUGGUGGCGCGUGCCUGUAAUCCCAGCUACUCGGGAAGCUGAGGCAGGUGAAUGGAAUUCUCGGGUGCCAA", "RBNS enrichment (R)": 0.733}
{"Sequence": "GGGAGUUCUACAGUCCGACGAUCAAUGGCCCAGCAUUAGCCCAGUAUUGGAAAAGACACCAGCCCAGGGGCCCUGACUCGUCACACUUCCCUUUCCUAAGCCUCUGAGGGUGGAGAUUCCCCUAGGAGCGCUUUGGAAUUCUCGGGUGCCAA", "RBNS enrichment (R)": 1.19}
{"Sequence": "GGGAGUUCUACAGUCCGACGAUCAGUAGGGGAGUUUCGGUGUACACAUUGAAUUUUCCACUUAUGUAAAUAAAACGGAUUUUGAUAAAUCAUGGUGAGGAAUCUGUUUGUCCUGGGACUGGGUUCAGUGGUGGUGGAAUUCUCGGGUGCCAA", "RBNS enrichment (R)": 0.67}
{"data": "Further values, each from its own experiment"}
{"Substance": "PhoQ, residues 284 288 289 292 302 303 SSCLAV", "target": "PhoP, residues 12 14 15 18 19 LHATL (Escherichia coli, UniProt P23836)", "assay": "Sort-seq, item: YFP reporter", "test system": "E. coli", "setting": "PhoQ-PhoP variant library, added: 10 µM Mg2+", "how to read": "reference: high Mg2+ state, higher = stronger signaling", "measurement": "fold induction", "result": 3.59}
